Assay results collected from several papers.
Numbered parts are unrelated; each lists some results of a single study. Substitutions count along the parent as printed.

Block 1
Target: Max-binding protein MNT, bHLH-zipper, MAX partner unstated (MNT, Homo sapiens, UniProt Q99583, residues 220-300)
Method: protein-binding microarray
Molecule type: double-stranded DNA, one strand shown
Medium: in vitro
Tested at: not given
Setting: k-mer, scored over probes, only values ≥0.25
Reading: higher = stronger binding
Target sequence (chain): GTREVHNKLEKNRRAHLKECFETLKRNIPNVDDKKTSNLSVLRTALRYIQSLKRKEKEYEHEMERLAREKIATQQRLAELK
Strand | E-score
CGCCCCAC | 0.383
ATGCAGCC | 0.279
CCACATGG | 0.479
CCCATGGC | 0.252
GTGGCGCA | 0.325
TCGCCCCA | 0.313
GTTTACGA | 0.272
CATCCACG | 0.321

Block 2
Target: Eukaryotic initiation factor 4A-I (EIF4A1, Homo sapiens, UniProt P60842, residues 1-406, full length assumed)
UniProt P60842, sequence (whole entry, looked up): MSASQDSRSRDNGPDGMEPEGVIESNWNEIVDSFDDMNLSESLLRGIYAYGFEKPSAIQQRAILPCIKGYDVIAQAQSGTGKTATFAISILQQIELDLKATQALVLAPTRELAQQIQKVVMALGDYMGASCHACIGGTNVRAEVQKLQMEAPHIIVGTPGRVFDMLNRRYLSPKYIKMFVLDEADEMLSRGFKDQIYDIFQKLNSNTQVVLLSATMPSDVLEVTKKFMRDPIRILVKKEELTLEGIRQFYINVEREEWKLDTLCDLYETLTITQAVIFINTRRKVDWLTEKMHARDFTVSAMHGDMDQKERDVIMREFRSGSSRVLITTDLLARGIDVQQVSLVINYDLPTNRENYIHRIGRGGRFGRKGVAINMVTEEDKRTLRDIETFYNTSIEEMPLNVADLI
Method: RNA Bind-n-Seq
Molecule type: RNA
Medium: in vitro
Tested at: 90 pmol
Setting: 4-mer, random 30-nt RNA, single round
Added: 3 µM iPr-DMDA-PatA, 2 mM ADP, 2 mM phosphate
Reference: input library
Reading: higher = stronger binding
Strand | 4-mer enrichment [fold]
CACG | 0.941
CGCU | 0.787
GGCC | 0.61
UGCA | 0.893
GUCA | 0.991
GACU | 1.1
GUAC | 0.986
CUAU | 1.08

Block 3
Target: CCNE1, cyclin fold, Cln2 fusion (human)
Method: yeast growth competition, sequencing
Medium: yeast
Setting: strong parent motif
Reference: not given
Reading: higher = stronger binding
Starting sequence: viral docking peptide; TSVRRALFTGGSD; partner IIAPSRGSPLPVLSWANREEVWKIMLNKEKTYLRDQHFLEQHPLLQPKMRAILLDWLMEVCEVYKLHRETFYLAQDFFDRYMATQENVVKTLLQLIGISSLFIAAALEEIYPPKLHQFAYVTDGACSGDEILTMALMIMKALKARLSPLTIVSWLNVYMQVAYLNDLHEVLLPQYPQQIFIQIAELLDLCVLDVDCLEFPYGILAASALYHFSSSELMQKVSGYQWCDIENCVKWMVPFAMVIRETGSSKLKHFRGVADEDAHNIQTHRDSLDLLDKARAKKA
Variant | normalised enrichment score
R5W | 0.549
G11K | 5.04
G11A | 5.45
S12E | 6.23
F8A | -0.00846
R4L | 1.13
L7D | 0.199
V3I | 1.7
G10D | 6.31
R5I | 0.626
G11Q | 5.63
R5A | 0.34
F8S | 0.106
R4N | 1.79
T9N | 4.47
V3D | 0.133
T9A | 4.28
F8V | 0.206
V3E | 0.766
L7W | 0.497
S2C | 5.2
R5K | 1.95
S12P | 5.88
R5T | 0.148
G11I | 5.04

Block 4
Target: HLA class I histocompatibility antigen, A alpha chain, allele A*80:01 (Homo sapiens, UniProt P04439)
Observed: peptide-MHC binding
Molecule type: peptide
Tested at: concentration not given
Sequence | binding
KVSVGSYFC | inactive
KLWASFFQG | inactive
IILKALYML | inactive
IRMWNQAAL | inactive

Block 5
Target: UBE2D4 UBC core domain (UniProt Q9Y2X8)
Method: yeast two-hybrid
Medium: yeast
Setting: mostly zero background
Reference: not given
Reading: higher = stronger interaction
B1: TRIM15 RING domain (UniProt Q9C019); chain SLKVVHELPACTLCAGPLEDAVTIPCGHTFCRLCLPALSQMGAQSSGKILLCPLCQEEEQAETPMA
B2: RFPL2 RING domain (UniProt O75678); chain MAALFQEASSCPVCSDYLEKPMSLECGCAVCLKCINSLQKEPHGEDLLCCCSSMVSRKNKIRR
B3: PHF7 RING domain (UniProt Q9BWX1); chain IQHGHVGEESCILCCEDLSQQSVENIQSPCCSQAIYHRKCIQKYAHTSAKHFFKCPQCNNRKEFPQEML
B4: RNF32 RING domain (UniProt Q9H0A6); chain SLLQGDSVQPCPICKEEFELRPQVLLSCSHVFHKACLQAFEKFTNKKTCPLCRKNQYQTRVIH
B5: UBE4A RING domain (UniProt Q14139); chain LQQQEEETYADACDEFLDPIMSTLMCDPVVLPSSRVTVDRSTIARHLLSDQTDPFNRSPLTMDQIRPNTELKEKIQRWLAERKQQKEQLE
B6: ANKIB1 RING domain (UniProt Q9P2G1); chain LSPGDLDTSLCDICMCSISVFEDPVDMPCGHDFCRGCWESFLNLKIQEGEAHNIFCPAYDCFQLVPVDIIE
Construct (chain): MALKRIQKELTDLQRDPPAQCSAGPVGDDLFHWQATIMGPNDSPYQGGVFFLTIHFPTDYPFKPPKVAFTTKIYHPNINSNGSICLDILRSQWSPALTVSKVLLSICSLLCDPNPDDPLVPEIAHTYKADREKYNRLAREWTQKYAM
Sequence | lacZ reporter activity
B1 (TRIM15 RING domain) | 0
B2 (RFPL2 RING domain) | 0
B3 (PHF7 RING domain) | 0
MANWVFCNRCFQPPHRTSCFSLTNCGHVYCDACLGKGKKNECLICKAPCRTVLLSK (RNF212 RING domain (UniProt Q495C1)) | 0
B4 (RNF32 RING domain) | 0
B5 (UBE4A RING domain) | 2100
B6 (ANKIB1 RING domain) | 0

A few entries again (block 3):
Variant | normalised enrichment score
F8S | 0.106
R4N | 1.79
T9N | 4.47
